# Measured values pooled from the literature.
# Protocols differ between the studies behind these lines. Values joined by “and” are separate records of one study, mostly repeats; a detail may differ. ± gives the spread as reported.
# OPRK1: Kappa-type opioid receptor (OPRK1, Homo sapiens, UniProt P41145)
# Sequence of UniProt P34972 (whole entry, looked up): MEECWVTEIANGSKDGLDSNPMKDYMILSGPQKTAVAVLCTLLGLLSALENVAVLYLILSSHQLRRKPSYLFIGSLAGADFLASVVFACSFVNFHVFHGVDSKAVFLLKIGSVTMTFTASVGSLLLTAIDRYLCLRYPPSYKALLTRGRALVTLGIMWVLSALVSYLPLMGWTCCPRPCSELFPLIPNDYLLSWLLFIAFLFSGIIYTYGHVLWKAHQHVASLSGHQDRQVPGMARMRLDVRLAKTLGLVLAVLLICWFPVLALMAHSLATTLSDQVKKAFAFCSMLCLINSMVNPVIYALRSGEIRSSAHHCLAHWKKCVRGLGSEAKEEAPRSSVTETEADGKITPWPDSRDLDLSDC
# Sequence of UniProt P41145 (whole entry, looked up): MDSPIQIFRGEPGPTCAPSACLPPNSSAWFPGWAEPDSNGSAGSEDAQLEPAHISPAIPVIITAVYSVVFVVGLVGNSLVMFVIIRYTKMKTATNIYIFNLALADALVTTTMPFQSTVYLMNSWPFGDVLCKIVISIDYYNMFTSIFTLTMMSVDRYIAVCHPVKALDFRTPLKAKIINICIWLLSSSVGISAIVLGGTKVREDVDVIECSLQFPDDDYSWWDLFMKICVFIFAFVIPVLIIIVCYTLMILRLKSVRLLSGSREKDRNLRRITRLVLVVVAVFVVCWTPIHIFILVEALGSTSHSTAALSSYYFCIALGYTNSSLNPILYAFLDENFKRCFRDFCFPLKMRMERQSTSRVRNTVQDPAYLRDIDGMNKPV
# Sequence of UniProt P41146 (whole entry, looked up): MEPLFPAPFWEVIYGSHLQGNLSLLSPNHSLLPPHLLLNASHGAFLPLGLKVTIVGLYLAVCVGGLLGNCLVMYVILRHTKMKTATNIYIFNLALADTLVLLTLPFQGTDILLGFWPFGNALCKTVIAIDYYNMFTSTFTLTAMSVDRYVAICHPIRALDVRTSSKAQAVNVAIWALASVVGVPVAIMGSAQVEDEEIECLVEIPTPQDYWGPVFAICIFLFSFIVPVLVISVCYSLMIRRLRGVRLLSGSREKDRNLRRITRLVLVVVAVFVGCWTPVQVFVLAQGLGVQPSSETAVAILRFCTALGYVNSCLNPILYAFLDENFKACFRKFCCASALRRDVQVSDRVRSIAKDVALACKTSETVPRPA
# Sequence of UniProt Q15858 (whole entry, looked up): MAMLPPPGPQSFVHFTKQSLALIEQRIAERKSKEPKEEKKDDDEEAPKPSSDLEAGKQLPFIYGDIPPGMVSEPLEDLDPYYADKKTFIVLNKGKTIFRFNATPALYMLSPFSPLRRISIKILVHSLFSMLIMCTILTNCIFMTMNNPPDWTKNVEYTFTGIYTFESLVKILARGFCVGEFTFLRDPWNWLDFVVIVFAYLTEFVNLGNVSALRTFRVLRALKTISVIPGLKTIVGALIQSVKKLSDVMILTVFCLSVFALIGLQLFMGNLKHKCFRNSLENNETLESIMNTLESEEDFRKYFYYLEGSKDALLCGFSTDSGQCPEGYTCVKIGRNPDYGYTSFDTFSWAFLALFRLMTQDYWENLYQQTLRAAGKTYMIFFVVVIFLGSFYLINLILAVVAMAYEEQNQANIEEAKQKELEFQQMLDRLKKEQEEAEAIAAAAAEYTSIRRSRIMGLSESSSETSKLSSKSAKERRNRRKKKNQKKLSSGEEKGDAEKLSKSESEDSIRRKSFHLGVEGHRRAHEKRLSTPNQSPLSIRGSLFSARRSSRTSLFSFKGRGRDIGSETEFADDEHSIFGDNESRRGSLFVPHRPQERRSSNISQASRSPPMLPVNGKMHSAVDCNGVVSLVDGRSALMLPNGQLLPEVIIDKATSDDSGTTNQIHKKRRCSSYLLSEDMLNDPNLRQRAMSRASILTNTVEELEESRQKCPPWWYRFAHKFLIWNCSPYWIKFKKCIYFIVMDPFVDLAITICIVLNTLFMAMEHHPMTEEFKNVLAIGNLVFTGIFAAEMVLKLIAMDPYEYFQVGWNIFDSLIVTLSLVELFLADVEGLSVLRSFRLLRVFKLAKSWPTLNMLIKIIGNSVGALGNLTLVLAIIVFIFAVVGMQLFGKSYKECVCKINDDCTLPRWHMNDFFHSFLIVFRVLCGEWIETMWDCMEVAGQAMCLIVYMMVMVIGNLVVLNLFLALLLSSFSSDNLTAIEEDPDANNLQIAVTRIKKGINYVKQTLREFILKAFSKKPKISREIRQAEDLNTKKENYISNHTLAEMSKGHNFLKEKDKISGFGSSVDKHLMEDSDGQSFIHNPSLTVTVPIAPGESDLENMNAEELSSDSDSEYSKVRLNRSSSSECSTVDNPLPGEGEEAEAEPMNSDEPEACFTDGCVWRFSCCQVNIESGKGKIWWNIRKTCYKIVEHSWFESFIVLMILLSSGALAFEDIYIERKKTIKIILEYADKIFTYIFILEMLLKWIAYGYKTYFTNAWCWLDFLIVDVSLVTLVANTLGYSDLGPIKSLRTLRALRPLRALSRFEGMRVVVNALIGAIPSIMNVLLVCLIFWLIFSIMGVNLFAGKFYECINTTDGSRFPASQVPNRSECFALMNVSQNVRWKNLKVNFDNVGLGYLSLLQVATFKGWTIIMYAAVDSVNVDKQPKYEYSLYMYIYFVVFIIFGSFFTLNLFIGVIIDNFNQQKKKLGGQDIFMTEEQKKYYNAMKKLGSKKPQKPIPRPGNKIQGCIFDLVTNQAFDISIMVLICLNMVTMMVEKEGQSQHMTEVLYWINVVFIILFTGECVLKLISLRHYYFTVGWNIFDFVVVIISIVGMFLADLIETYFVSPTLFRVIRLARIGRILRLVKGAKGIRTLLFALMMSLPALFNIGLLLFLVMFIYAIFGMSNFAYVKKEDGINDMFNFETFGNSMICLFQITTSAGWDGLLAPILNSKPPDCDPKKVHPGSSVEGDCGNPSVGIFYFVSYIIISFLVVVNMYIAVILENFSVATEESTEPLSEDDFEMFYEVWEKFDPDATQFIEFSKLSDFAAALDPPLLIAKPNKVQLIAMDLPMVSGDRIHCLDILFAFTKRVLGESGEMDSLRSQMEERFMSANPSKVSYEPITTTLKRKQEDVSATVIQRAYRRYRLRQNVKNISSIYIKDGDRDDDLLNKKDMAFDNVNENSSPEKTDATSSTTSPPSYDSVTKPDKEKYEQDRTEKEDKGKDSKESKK
# Sequence of UniProt Q0P543 (whole entry, looked up): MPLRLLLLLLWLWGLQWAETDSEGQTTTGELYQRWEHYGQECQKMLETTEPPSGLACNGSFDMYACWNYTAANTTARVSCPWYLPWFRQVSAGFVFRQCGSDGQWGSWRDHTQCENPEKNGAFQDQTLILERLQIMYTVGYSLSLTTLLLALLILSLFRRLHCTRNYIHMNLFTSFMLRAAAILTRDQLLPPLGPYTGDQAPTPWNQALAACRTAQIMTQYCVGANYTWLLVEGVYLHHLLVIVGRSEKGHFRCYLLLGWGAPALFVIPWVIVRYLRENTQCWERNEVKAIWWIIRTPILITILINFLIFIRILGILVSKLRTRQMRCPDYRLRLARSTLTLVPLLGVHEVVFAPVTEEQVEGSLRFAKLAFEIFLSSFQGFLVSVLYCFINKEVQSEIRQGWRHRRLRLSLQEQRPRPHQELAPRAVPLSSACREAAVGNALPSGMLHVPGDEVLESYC
# Sequence of UniProt P48546 (whole entry, looked up): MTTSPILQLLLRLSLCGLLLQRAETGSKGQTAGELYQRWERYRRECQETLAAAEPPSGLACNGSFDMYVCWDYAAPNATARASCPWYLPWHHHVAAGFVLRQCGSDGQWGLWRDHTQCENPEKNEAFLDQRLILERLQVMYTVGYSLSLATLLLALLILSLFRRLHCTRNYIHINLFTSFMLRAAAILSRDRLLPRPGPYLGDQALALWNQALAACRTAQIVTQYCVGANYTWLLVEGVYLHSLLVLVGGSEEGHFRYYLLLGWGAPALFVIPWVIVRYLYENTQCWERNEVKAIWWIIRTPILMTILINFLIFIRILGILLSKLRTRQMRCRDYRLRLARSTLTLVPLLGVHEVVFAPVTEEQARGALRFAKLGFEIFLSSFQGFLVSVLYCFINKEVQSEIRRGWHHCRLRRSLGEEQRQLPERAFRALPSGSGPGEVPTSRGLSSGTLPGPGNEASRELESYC
# Sequence of UniProt P33533 (whole entry, looked up): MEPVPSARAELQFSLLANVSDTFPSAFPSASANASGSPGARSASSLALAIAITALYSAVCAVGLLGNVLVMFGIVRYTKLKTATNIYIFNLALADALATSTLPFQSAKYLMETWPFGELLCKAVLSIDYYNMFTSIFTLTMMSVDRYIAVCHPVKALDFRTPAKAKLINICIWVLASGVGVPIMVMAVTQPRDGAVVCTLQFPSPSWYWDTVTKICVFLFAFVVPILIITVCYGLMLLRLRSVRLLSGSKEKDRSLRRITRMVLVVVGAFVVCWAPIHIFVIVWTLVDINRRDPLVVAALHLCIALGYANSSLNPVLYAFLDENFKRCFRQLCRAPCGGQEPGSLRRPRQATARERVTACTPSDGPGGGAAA
SMILES,target or system,assay,test system,setting,quantity,result
Cc1cc(O)cc(C)c1C[C@H](N)C(=O)NCC(=O)NCC(=O)N[C@@H](Cc1ccccc1)C(=O)N[C@H](C(=O)NCC(=O)N[C@@H](C)C(=O)N[C@@H](CCCNC(=N)N)C(=O)N[C@@H](CCCCN)C(=O)N[C@@H](CO)C(=O)N[C@@H](C)C(=O)N[C@@H](CCCNC(=N)N)C(=O)N[C@@H](CCCCN)C(N)=O)[C@@H](C)O,"Nociceptin receptor (OPRL1, Homo sapiens, UniProt P41146)","GTPγS binding, agonist, radiometric",,cell membranes,EC50,0.347 nM
C[C@H](NC(=O)CNC(=O)[C@@H](NC(=O)[C@H](Cc1ccccc1)NC(=O)CNC(=O)CNC[C@@H](N)Cc1ccccc1)[C@@H](C)O)C(=O)N[C@@H](CCCN=C(N)N)C(=O)N[C@@H](CCCCN)C(=O)N[C@@H](CO)C(=O)N[C@@H](C)C(=O)N[C@@H](CCCN=C(N)N)C(=O)N[C@@H](CCCCN)C(N)=O,"Nociceptin receptor, with G protein (OPRL1, Homo sapiens, UniProt P41146)",agonist,,,EC50,3.55 nM
CC[C@H](C)[C@H](NC(=O)[C@H](CCCN)NC(=O)[C@H](CC(=O)O)NC(=O)[C@H](CC(C)C)NC(=O)C(C)(CC(C)C)NC(=O)[C@@H](NC(=O)[C@H](CO)NC(=O)[C@H](Cc1ccc(O)cc1)NC(=O)[C@H](CC(=O)O)NC(=O)[C@H](CO)NC(=O)[C@@H](NC(=O)[C@H](Cc1ccccc1)NC(=O)[C@@H](NC(=O)CNC(=O)[C@H](CCC(=O)O)NC(=O)C(C)(C)NC(=O)[C@@H](N)Cc1ccc(O)cc1)[C@@H](C)O)[C@@H](C)CC)[C@@H](C)CC)C(=O)N[C@@H](Cc1c[nH]cn1)C(=O)N[C@@H](CCC(N)=O)C(=O)NC(C)(C)C(=O)N[C@@H](CC(=O)O)C(=O)N[C@@H](Cc1ccccc1)C(=O)N[C@H](C(=O)N[C@@H](CCC(=O)O)C(=O)N[C@@H](Cc1ccc(O)cc1)C(=O)N[C@@H](CCCCNC(=O)COCCOCCNC(=O)COCCOCCNC(=O)CC[C@H](NC(=O)CCCCCCCCCCCCCCCCCCC(=O)O)C(=O)O)C(=O)N[C@@H](CC(C)C)C(=O)N[C@@H](CCC(=O)O)C(=O)NCC(=O)NCC(=O)N1CCC[C@H]1C(=O)N[C@@H](CO)C(=O)N[C@@H](CO)C(=O)NCC(=O)N[C@@H](C)C(=O)N1CCC[C@H]1C(=O)N1CCC[C@H]1C(=O)N1CCC[C@H]1C(=O)N[C@@H](CO)C(N)=O)C(C)C (stereo partly drawn),"Gastric inhibitory polypeptide receptor (Mus musculus, UniProt Q0P543)","cAMP, agonist",,,EC50,1.45 nM
CCCCCCCCCCCCCCCC(=O)N[C@@H](CCC(=O)NCCOCCOCCC(=O)NCCOCCOCCC(=O)NCCCC[C@H](NC(=O)[C@H](CC(=O)O)NC(=O)[C@H](CC(C)C)NC(=O)[C@H](Cc1ccc(O)cc1)NC(=O)[C@H](CCCCN)NC(=O)[C@H](CO)NC(=O)[C@H](Cc1ccc(O)cc1)NC(=O)[C@H](CC(=O)O)NC(=O)[C@H](CO)NC(=O)[C@@H](NC(=O)[C@H](Cc1ccccc1)NC(=O)[C@@H](NC(=O)CNC(=O)[C@H](CCC(N)=O)NC(=O)[C@@H](CO)NC(=O)[C@@H](N)Cc1c[nH]cn1)[C@@H](C)O)[C@@H](C)O)C(=O)N[C@@H](CCCNC(=N)N)C(=O)N[C@@H](CCCNC(=N)N)C(=O)N[C@@H](C)C(=O)N[C@@H](CCC(N)=O)C(=O)N[C@@H](CC(=O)O)C(=O)N[C@@H](Cc1ccccc1)C(=O)N[C@H](C(=O)N[C@@H](CCC(N)=O)C(=O)N[C@@H](Cc1c[nH]c2ccccc12)C(=O)N[C@@H](CC(C)C)C(=O)N[C@@H](CC(C)C)C(=O)N[C@@H](CC(N)=O)C(=O)N[C@H](C(=O)NCC(=O)NCC(=O)N1CCC[C@H]1C(=O)N[C@@H](CO)C(=O)N[C@@H](CO)C(=O)NCC(=O)N[C@@H](C)C(=O)N1CCC[C@H]1C(=O)N1CCC[C@H]1C(=O)N1CCC[C@H]1C(=O)N[C@@H](CO)C(N)=O)[C@@H](C)O)C(C)C)C(=O)O,,,male Sprague-Dawley rats,"subcutaneous, 20 µg/kg once daily, 14 days",serum total bilirubin,1 ± 0.3 µmol/L
CC[C@H](C)[C@H](NC(=O)[C@H](CCCCN)NC(=O)[C@H](CCCCN)NC(=O)[C@H](CC(C)C)NC(=O)[C@H](Cc1c[nH]c2ccccc12)NC(=O)CN)C(=O)NCC(=O)N[C@@H](CCCCN)C(=O)N[C@@H](CCCCN)C(=O)N[C@H](C(=O)N[C@@H](CCC(=O)O)C(=O)N[C@@H](CCCNC(=N)N)C(=O)N[C@H](C(=O)NCC(=O)N[C@@H](CCC(N)=O)C(=O)N[C@@H](Cc1c[nH]cn1)C(=O)N[C@H](C(=O)N[C@@H](CCCNC(=N)N)C(=O)N[C@@H](CC(=O)O)C(=O)N[C@@H](C)C(=O)N[C@H](C(=O)N[C@H](C(=O)N[C@@H](CCC(N)=O)C(=O)N[C@H](C(=O)N[C@H](C(=O)NCC(=O)N[C@H](C(=O)N[C@@H](C)C(=O)N[C@@H](CCC(N)=O)C(=O)N[C@@H](CCC(N)=O)C(=O)N[C@@H](C)C(=O)N[C@@H](C)C(=O)N[C@@H](CC(N)=O)C(=O)N[C@H](C(=O)N[C@@H](C)C(=O)N[C@@H](C)C(=O)N[C@H](C(=O)N[C@@H](CC(C)C)C(=O)N[C@@H](CCCCN)C(N)=O)[C@@H](C)O)C(C)C)C(C)C)[C@@H](C)CC)[C@@H](C)O)[C@@H](C)CC)[C@@H](C)O)[C@@H](C)O)C(C)C)[C@@H](C)CC,Staphylococcus aureus,broth microdilution,"ATCC 25923, CAMHB",,MIC,> 1020 µg/mL
CC(C)C[C@H](NC(=O)[C@H](CO[C@@H]1O[C@H](CO)[C@@H](O)[C@H](O)[C@H]1O)NC(=O)[C@H](CCCCN)NC(=O)[C@H](CC(C)C)NC(=O)C(C)(C)NC(=O)[C@H](CCCCN)NC(=O)[C@H](CCC(=O)O)NC(=O)C(C)(C)NC(=O)[C@H](CC(C)C)NC(=O)[C@H](CC(N)=O)NC(=O)[C@@H]1CCCN1C(=O)[C@H](CC(C)C)NC(=O)[C@H](Cc1ccccc1)NC(=O)CNC(=O)[C@H](NC(=O)[C@@H](N)Cc1ccc(O)cc1)[C@H](C)O)C(N)=O,OPRK1,"ligand displacement, radioligand",,"pH 7.5, cell membranes",Ki,6.9 nM
CC[C@H](C)[C@@H]1NC(=O)[C@H](CCCNC(=N)N)NC(=O)[C@H](Cc2ccccc2)NC(=O)[C@H](CC(C)C)NC(=O)[C@H](CO)NC(=O)[C@@H]2CSSC[C@@H]3NC(=O)[C@H]([C@@H](C)O)NC(=O)[C@H](CSSC[C@H](NC(=O)[C@H](CCCNC(=N)N)NC(=O)[C@@H]4CCCN4C(=O)[C@@H](N)CC(C)C)C(=O)N[C@@H](CC(=O)O)C(=O)N[C@@H](CO)C(=O)N4CCC[C@H]4C(=O)N[C@@H](Cc4ccccc4)C(=O)N2)NC(=O)[C@H](CCCCN)NC(=O)[C@H](CC(=O)O)NC(=O)CNC(=O)[C@H](CSSC[C@@H](C(=O)N[C@H](C(=O)N2CCC[C@H]2C(=O)N[C@@H](CC(=O)O)C(=O)N[C@H](C(=O)O)C(C)C)C(C)C)NC(=O)[C@H](CC(C)C)NC(=O)CNC(=O)[C@H](Cc2ccccc2)NC(=O)[C@H]([C@@H](C)CC)NC(=O)[C@@H]2CCCN2C(=O)[C@H](CC(C)C)NC(=O)[C@@H]2CCCN2C(=O)[C@H](C(C)C)NC3=O)NC(=O)[C@H](CC(C)C)NC(=O)CNC1=O,"SCN9A (Homo sapiens, UniProt Q15858)","delay of inactivation, automated patch clamp, measured: sustained current relative to peak",TE-671 cells,"5 min per concentration, holding -90 mV, pulse to -20 mV",EC50,57.5 nM
CC[C@H](C)[C@@H]1NC(=O)[C@H]([C@@H](C)O)NC(=O)[C@H](CCC(=O)O)NC(=O)[C@H](CO)NC(=O)[C@H](Cc2ccc(O)cc2)NC(=O)[C@@H]2CSSC[C@@H]3NC(=O)[C@H]([C@@H](C)CC)NC(=O)[C@@H]4CCCN4C(=O)[C@H](Cc4c[nH]c5ccccc45)NC(=O)[C@H](CCC(=O)O)NC(=O)[C@@H]4CSSC[C@H](NC(=O)[C@H]([C@@H](C)O)NC(=O)[C@H](CCC(=O)O)NC(=O)CNC(=O)[C@H](CSSC[C@H](NC(=O)CNC1=O)C(=O)N[C@@H]([C@@H](C)O)C(=O)N4)NC(=O)[C@@H]1CCCN1C(=O)[C@H](CC(C)C)NC(=O)[C@@H]1CCCN1C(=O)[C@H](CC(=O)O)NC(=O)CNC(=O)[C@H](CC(N)=O)NC(=O)[C@H](CCCCN)NC(=O)[C@H]([C@@H](C)O)NC3=O)C(=O)N[C@@H](Cc1ccccc1)C(=O)N[C@@H]([C@@H](C)O)C(=O)NCC(=O)N[C@@H](CCCCN)C(=O)N2,"CNR2 (Homo sapiens, UniProt P34972)","cAMP, agonist, TR-FRET",,,EC50,8000 nM and 7800 nM
CSCC[C@H](NC(=O)[C@H](Cc1ccccc1)NC(=O)CNC(=O)CNC(=O)[C@@H](N)Cc1ccc(O)cc1)C(=O)N[C@H](C(=O)N[C@@H](CO)C(=O)N[C@@H](CCC(=O)O)C(=O)N[C@@H](CCCCN)C(=O)O)[C@@H](C)O,"Oprd1 (Rattus norvegicus, UniProt P33533)","cAMP, agonist",,,EC50,~44 nM
Cc1ccc(C)c(OCCn2cc(C(=O)O)c3ccccc32)c1,"RAC1 (Homo sapiens, UniProt P63000)","GTP binding, flow cytometry bead",,"EDTA buffer, together with: 100 nM BODIPY-GTP",EC50,794 nM
CC(C)C[C@H](NC(=O)[C@H](CO)NC(=O)[C@H](CCCCN)NC(=O)[C@H](CC(C)C)NC(=O)C(C)(C)NC(=O)[C@H](CCCCN)NC(=O)[C@H](CCC(=O)O)NC(=O)[C@H](C)NC(=O)[C@H](CC(C)C)NC(=O)[C@H](CC(N)=O)NC(=O)[C@@H]1CCCN1C(=O)[C@H](CC(C)C)NC(=O)[C@H](Cc1ccccc1)NC(=O)CNC(=O)[C@H](NC(=O)[C@@H](N)Cc1ccc(O)cc1)[C@H](C)O)C(N)=O,OPRK1,"ligand displacement, radioligand",,"pH 7.5, cell membranes",Ki,16 nM
CCCCCCCCCCCCCCCC(=O)N[C@@H](CCC(=O)NCCCC[C@H](NC(=O)[C@H](CC(=O)O)NC(=O)[C@H](CO)NC(=O)[C@@H](NC(=O)[C@H](Cc1ccccc1)NC(=O)[C@@H](NC(=O)CNC(=O)[C@H](CCC(N)=O)NC(=O)[C@H](C)NC(=O)[C@@H](Cc1ccc(O)cc1)NC(C)=O)[C@@H](C)O)[C@@H](C)O)C(=O)N[C@@H](CO)C(=O)N[C@@H](CCCCN)C(=O)N[C@@H](Cc1ccc(O)cc1)C(=O)N[C@@H](CC(C)C)C(=O)N[C@@H](CC(=O)O)C(=O)N[C@@H](CCC(=O)O)C(=O)N[C@@H](CCCNC(=N)N)C(=O)N[C@@H](C)C(=O)N[C@@H](C)C(=O)N[C@@H](CCC(N)=O)C(=O)N[C@@H](CC(=O)O)C(=O)N[C@@H](Cc1ccccc1)C(=O)N[C@H](C(=O)N[C@@H](CCC(N)=O)C(=O)N[C@@H](Cc1c[nH]c2ccccc12)C(=O)N[C@@H](CC(C)C)C(=O)N[C@@H](CC(C)C)C(=O)N[C@@H](CCC(=O)O)C(=O)NCC(=O)NCC(=O)N1CCC[C@H]1C(=O)N[C@@H](CO)C(=O)N[C@@H](CO)C(=O)NCC(=O)N[C@@H](C)C(=O)N1CCC[C@H]1C(=O)N1CCC[C@H]1C(=O)N1CCC[C@H]1C(=O)N[C@@H](CO)C(N)=O)C(C)C)C(=O)O,"GIPR (Homo sapiens, UniProt P48546)","reporter gene, agonist, luciferase",,,EC50,0.0035 nM

# Repeated from above:
SMILES,target or system,assay,test system,setting,quantity,result
CSCC[C@H](NC(=O)[C@H](Cc1ccccc1)NC(=O)CNC(=O)CNC(=O)[C@@H](N)Cc1ccc(O)cc1)C(=O)N[C@H](C(=O)N[C@@H](CO)C(=O)N[C@@H](CCC(=O)O)C(=O)N[C@@H](CCCCN)C(=O)O)[C@@H](C)O,"Oprd1 (Rattus norvegicus, UniProt P33533)","cAMP, agonist",,,EC50,~44 nM
Cc1cc(O)cc(C)c1C[C@H](N)C(=O)NCC(=O)NCC(=O)N[C@@H](Cc1ccccc1)C(=O)N[C@H](C(=O)NCC(=O)N[C@@H](C)C(=O)N[C@@H](CCCNC(=N)N)C(=O)N[C@@H](CCCCN)C(=O)N[C@@H](CO)C(=O)N[C@@H](C)C(=O)N[C@@H](CCCNC(=N)N)C(=O)N[C@@H](CCCCN)C(N)=O)[C@@H](C)O,"Nociceptin receptor (OPRL1, Homo sapiens, UniProt P41146)","GTPγS binding, agonist, radiometric",,cell membranes,EC50,0.347 nM
